Measured values from different studies.
Compare with care: the assays were run in different laboratories. “And” joins repeats or separate records; there may be more than shown. Numbers after ± are the reported error.
HTR6: 5-hydroxytryptamine receptor 6 (HTR6, Homo sapiens, UniProt P50406)
Breakpoint cluster region protein GAP domain: Breakpoint cluster region protein, GAP domain (Homo sapiens, UniProt P11274)
Sequence of UniProt P11274 (whole entry, looked up): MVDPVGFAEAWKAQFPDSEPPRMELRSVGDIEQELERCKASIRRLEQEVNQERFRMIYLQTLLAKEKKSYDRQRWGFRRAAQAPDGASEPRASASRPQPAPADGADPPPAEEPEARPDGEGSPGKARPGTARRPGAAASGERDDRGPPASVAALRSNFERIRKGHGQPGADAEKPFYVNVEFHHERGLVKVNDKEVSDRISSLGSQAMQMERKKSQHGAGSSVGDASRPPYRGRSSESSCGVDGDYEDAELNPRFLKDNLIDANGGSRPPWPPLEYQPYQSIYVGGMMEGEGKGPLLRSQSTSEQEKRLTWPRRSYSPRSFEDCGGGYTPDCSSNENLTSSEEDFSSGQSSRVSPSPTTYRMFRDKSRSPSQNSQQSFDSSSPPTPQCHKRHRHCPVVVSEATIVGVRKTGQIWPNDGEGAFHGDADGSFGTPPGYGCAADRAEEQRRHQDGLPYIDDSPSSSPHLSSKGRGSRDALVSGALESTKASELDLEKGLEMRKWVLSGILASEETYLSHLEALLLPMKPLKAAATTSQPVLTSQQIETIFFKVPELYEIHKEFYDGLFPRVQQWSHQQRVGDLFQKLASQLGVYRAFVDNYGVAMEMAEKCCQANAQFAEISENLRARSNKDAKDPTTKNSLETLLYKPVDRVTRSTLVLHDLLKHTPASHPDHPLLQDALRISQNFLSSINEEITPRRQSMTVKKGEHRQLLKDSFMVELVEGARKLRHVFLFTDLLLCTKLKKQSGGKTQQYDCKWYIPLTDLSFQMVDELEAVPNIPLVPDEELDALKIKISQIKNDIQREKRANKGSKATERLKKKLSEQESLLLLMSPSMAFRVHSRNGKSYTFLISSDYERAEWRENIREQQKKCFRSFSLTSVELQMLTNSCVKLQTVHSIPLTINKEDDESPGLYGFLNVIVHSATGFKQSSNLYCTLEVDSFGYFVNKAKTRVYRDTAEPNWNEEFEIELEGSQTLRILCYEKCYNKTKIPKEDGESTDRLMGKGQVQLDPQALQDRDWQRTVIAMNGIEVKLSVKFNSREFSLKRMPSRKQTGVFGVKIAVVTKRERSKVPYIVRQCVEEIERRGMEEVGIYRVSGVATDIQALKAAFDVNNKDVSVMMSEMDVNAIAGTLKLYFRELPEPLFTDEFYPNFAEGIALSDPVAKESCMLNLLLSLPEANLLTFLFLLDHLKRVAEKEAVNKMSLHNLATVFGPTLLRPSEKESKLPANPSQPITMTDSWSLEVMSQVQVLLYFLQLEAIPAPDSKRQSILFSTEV
sn-1-specific diacylglycerol lipase ABHD11: sn-1-specific diacylglycerol lipase ABHD11 (Mus musculus, UniProt Q8K4F5)
Sequence of UniProt Q8K4F5 (whole entry, looked up): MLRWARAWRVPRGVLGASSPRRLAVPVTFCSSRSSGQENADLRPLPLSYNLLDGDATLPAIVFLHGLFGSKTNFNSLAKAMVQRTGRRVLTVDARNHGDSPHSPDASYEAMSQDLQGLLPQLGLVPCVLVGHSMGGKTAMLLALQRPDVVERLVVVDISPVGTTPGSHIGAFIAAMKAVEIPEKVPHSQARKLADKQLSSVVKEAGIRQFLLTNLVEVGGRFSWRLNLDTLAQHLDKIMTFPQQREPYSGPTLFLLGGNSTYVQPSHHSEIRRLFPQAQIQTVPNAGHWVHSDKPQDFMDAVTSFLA
PARP1: Poly [ADP-ribose] polymerase 1 (PARP1, Homo sapiens, UniProt P09874)
Sequence of UniProt P09874 (whole entry, looked up): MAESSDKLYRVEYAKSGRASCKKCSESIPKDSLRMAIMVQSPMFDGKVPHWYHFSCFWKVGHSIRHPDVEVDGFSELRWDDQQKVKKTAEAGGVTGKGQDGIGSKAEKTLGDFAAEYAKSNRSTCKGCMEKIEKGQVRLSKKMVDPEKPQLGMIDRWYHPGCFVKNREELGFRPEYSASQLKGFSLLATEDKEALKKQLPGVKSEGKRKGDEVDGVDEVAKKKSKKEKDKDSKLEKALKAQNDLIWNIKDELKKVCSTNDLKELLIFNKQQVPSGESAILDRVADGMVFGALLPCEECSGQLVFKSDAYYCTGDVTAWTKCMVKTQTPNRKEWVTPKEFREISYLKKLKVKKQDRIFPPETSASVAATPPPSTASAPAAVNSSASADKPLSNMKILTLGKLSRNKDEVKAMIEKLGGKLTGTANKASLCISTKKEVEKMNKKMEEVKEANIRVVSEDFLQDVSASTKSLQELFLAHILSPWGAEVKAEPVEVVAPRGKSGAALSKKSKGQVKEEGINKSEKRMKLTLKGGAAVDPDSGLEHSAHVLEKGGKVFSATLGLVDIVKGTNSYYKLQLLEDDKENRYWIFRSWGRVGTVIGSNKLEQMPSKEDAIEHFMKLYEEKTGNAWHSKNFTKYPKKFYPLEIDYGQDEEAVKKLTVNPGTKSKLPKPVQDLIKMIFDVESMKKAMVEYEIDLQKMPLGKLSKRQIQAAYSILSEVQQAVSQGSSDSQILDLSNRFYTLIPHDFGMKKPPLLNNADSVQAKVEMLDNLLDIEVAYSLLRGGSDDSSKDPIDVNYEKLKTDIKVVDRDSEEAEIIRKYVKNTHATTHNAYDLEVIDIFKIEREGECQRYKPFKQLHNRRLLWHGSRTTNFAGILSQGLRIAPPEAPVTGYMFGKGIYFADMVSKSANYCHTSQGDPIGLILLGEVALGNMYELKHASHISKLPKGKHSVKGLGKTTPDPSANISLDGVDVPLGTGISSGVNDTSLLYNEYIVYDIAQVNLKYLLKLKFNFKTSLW
Lypla1: Acyl-protein thioesterase 1 (Lypla1, Mus musculus, UniProt P97823)
Sequence of UniProt P97823 (whole entry, looked up): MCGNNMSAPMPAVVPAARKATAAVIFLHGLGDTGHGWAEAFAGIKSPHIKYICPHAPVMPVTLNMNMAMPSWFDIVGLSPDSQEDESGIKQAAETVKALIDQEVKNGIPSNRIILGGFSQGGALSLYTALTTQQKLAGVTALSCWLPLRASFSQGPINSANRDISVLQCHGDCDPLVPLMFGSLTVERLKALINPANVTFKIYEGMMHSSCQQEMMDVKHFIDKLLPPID
HDAC3: Histone deacetylase 3 (HDAC3, Homo sapiens, UniProt O15379)
Sequence of UniProt O15379 (whole entry, looked up): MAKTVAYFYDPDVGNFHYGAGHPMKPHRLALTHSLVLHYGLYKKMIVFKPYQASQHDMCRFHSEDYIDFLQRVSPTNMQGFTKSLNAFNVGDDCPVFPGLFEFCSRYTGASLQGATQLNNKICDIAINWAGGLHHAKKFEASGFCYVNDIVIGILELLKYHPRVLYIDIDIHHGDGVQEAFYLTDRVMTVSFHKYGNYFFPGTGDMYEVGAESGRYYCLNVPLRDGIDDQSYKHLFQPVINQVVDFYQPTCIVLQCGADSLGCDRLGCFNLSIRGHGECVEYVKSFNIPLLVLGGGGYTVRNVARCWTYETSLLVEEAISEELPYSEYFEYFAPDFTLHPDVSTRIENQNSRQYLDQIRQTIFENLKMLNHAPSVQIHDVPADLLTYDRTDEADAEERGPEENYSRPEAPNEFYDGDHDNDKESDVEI
Neutral cholesterol ester hydrolase 1: Neutral cholesterol ester hydrolase 1 (Mus musculus, UniProt Q8BLF1)
Sequence of UniProt Q8BLF1 (whole entry, looked up): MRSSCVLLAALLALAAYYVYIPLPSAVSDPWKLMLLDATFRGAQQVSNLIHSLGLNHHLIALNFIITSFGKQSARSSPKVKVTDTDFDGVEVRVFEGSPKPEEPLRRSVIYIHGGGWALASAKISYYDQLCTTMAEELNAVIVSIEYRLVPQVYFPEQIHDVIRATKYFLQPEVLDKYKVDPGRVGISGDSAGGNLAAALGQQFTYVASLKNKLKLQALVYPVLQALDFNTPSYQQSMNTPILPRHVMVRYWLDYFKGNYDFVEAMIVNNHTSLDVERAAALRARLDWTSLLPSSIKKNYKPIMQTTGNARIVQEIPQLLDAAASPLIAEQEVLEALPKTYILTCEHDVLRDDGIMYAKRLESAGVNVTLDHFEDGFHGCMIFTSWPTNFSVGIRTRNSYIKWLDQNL
PLAT: Tissue-type plasminogen activator (PLAT, Homo sapiens, UniProt P00750)
Sequence of UniProt P00750 (whole entry, looked up): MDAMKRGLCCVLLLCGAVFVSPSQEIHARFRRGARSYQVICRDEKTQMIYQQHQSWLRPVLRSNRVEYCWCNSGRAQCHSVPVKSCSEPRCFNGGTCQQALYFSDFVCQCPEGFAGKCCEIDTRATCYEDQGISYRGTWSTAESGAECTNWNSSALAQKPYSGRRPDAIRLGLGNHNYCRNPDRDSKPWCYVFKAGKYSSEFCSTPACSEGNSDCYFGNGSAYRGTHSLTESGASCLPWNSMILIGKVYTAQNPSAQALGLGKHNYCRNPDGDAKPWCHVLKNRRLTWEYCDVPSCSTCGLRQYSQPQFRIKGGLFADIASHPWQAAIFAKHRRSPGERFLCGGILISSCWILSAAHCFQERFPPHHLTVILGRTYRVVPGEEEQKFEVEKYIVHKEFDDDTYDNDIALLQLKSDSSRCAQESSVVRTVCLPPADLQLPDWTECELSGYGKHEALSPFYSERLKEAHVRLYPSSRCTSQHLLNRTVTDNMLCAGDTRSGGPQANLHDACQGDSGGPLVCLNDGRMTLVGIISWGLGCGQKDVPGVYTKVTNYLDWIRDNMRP
DRD4: D(4) dopamine receptor (DRD4, Homo sapiens, UniProt P21917)
Sequence of UniProt Q13148 (whole entry, looked up): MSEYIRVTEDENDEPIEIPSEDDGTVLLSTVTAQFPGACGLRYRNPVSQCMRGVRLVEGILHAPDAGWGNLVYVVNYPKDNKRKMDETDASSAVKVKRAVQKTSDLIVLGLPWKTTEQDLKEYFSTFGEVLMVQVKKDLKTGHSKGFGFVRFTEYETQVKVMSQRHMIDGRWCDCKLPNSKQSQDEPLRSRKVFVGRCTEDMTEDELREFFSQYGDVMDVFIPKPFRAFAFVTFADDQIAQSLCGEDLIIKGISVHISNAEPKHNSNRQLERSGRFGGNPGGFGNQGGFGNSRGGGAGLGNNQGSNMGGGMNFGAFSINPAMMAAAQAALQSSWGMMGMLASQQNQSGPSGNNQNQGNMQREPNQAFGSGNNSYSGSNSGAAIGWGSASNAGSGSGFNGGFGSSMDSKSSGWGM
Sequence of UniProt Q2FZ93 (whole entry, looked up): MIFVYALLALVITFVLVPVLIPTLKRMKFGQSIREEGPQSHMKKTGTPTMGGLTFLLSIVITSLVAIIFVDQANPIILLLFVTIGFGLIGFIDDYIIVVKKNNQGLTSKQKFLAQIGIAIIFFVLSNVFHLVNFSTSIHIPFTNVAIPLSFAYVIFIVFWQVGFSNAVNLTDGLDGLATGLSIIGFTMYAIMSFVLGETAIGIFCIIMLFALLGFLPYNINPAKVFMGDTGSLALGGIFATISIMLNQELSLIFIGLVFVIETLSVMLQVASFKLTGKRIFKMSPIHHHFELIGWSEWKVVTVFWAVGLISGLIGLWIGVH

`CCCCCCCCCCCCCCCC(=O)N[C@@H](CCCCN)C(=O)N[C@@H](CCCCN)C(=O)N[C@@H](CO)C(=O)N[C@@H](CCCNC(=N)N)C(=O)N[C@@H](C)C(=O)N[C@@H](CC(C)C)C(=O)N[C@@H](Cc1ccccc1)C(N)=O` gave an inhibition of 17% (F2R (Homo sapiens, UniProt P25116); platelet aggregation, ex vivo LTA; human; 0.5 mg/kg, 2 h, together with: SFLLRN 20 µM; baseline: baseline).
The inhibition of `CC(=O)O[C@@]1(C)CN(Cc2ccccc2)[C@H]2C[C@@H]1CC(=O)[C@@H]2C` is reported as 16% (Oprd1 (Rattus norvegicus, UniProt P33533); ligand displacement, radioligand; 1 µM).
`O=C1c2sc(-c3ccc(N4CCC(CO)CC4)nc3F)nc2CCN1c1cccnc1` has an inhibition of 4% (HTR6; ligand displacement, radioligand; 1 µM).
`Nc1ccc2c(c1)OC1(CCCCC1)O2` gave an inhibition of 73% (Breakpoint cluster region protein GAP domain; GAP activity; 10 µM, selectivity counter screen).
`O=C(N(c1ccccc1)c1ccccc1)n1ccnn1` gave an inhibition of over 95% (sn-1-specific diacylglycerol lipase ABHD11; serine hydrolase activity, inhibitor, competitive gel-based ABPP; mouse T-cell proteome; 1 µM, 30 min, 37 °C).
For `Cc1cccc(O[C@H]2CCC[C@@H](C(C)CNCc3ccncc3)C2)c1` (relative stereo), the inhibition was 4% (TYK2 (Homo sapiens, UniProt P29597); kinase activity, kinome panel screening; 1 µM).
For `CC1CCN(C(=O)c2cccc(NC(=O)Nc3cc(Cl)cc(Cl)c3)c2)CC1`, inhibition read “no inhibition” (Beta-lactam-inducible penicillin-binding protein (pbp, Staphylococcus aureus, UniProt P07944); Bocillin-FL labelling, fluorescence polarization; 50 µM).
The inhibition of `C=CC(=O)Nc1cccc(-c2cnc3[nH]cc(C(=O)NC(C)(C)C)c3n2)c1` is reported as 4% (PIK3CB (Homo sapiens, UniProt P42338); enzyme activity, inhibitor; 0.1 µM).
Under “log2 fold change”, `Cc1ncsc1-c1ccc(C(C)NC(=O)C2CC(O)CN2C(=O)C(NC(=O)CCCCCCCCCCN2CCCC(Nc3ncc(Cl)c(Nc4ccccc4S(=O)(=O)C(C)C)n3)C2)C(C)(C)C)cc1` (centres unmarked) is recorded as -1.11 (22Rv1; RNA-seq, item: PTCH1 mRNA; concentration not given; baseline: DMSO).
With `Cc1cc(C(=O)NCCNC(=O)c2cccc(COc3ccccc3C(N)=O)c2)n[nH]1` the inhibition was 17% (PARP1; enzyme activity, inhibitor; 50 nM).
The inhibition of `CC(=O)[C@]12NC(C)(C)C[C@@]1(C)C(=O)C1=C2c2c(c3c4n2C(C)(C)CC2=C4[C@@]4(CC(C)(C)N[C@@](C)(C4)C2=O)CC3(C)C)C(=O)C(C)(C)N1` (racemic) is reported as 12 ± 0.07% (SCN2A (Homo sapiens, UniProt Q99250); sodium current; HEK293T; 40 µM).
With `O=C(N1CCOCC1)n1ccnn1` the inhibition was under 50% (Lypla1; 1 µM).
With `CC(C)Cn1c(SCC(=O)N2CCc3ccccc3C2)nc2cc(Cl)ccc2c1=O` the inhibition was 1% (ADRB1 (Homo sapiens, UniProt P08588); ligand displacement, radioligand; 10 µM).
The inhibition of `CCOC(=O)C1(C)C(Br)=C(Cl)C(=O)N1c1ccc(Cl)cc1` (centres unmarked) is reported as -13.6% (Breakpoint cluster region protein GAP domain; GAP activity; 10 µM, selectivity counter screen).
`O=C1c2sc(-c3ccc(N4CCC(F)C4)nc3F)nc2CCN1c1cccnc1` (centres unmarked) has an inhibition of 99.1% and 95.6% (TAR DNA-binding protein 43, aggregated (TARDBP, Homo sapiens, UniProt Q13148); radioligand binding; homogenate, FTLD-TDP, type A; 2000 nM, together with: [3H]ACI-19626).
`O=c1ccsn1Cc1ccccc1` gave an inhibition of 1.17% (Breakpoint cluster region protein GAP domain; GAP activity; 10 µM, selectivity counter screen).
`CN(C(=O)n1ccnn1)c1ccccc1` gave an inhibition of under 50% (Lypla1; 1 µM).
`CC[C@H](C)[C@@H]1NC(=O)[C@H](Cc2ccccc2C(F)(F)F)NC(=O)CCSCc2cccc(n2)CSCCCNC(=O)[C@H](CCCCCC(=O)O)NC1=O` has an inhibition of 30% (HDAC3; enzyme activity, inhibitor, fluorogenic; 30 µM).
`C[Si]1(C[C@H](CN)CC(=O)O)CCCC1` has an inhibition of 8% (L-type calcium channel, rat; binding, radioligand binding; 70 µM).
`O=C(CCCc1ccc2c(c1)OCCO2)NCCNC(=O)Cn1c(=O)[nH]c(=O)c2ccccc21` gave an inhibition of 90% (PARP1; enzyme activity, inhibitor; 0.104 µM).
`Cc1c(COc2cc(OCc3cccc(C#N)c3)c(CNC(C)(CO)CO)cc2Cl)cccc1-c1cccc(OCc2ccc(C(=O)NO)cc2)c1` has an inhibition of 33.4% (HDAC3; enzyme activity, inhibitor; 1 µM).
`C[Si](C)(C)C[C@H](CN)CC(=O)O` has an inhibition of 3% (L-type calcium channel, rat; binding, radioligand binding; 250 µM, together with: [3H](-)-desmethoxyverapamil).
`CCN(CC)C(=O)n1ccnn1` has an inhibition of under 50% (Platelet-activating factor acetylhydrolase 2, cytoplasmic (Mus musculus, UniProt Q8VDG7); serine hydrolase activity, inhibitor, competitive gel-based ABPP; mouse T-cell proteome; 1 µM, 30 min, 37 °C).
`Cc1c(OS(=O)(=O)Oc2ccc(C(C)C)cc2)cccc1C(=O)NO` gave an inhibition of 17% (HDAC8 (Homo sapiens, UniProt Q9BY41); enzyme activity, inhibitor, fluorescence; 10 µM).
For `CO[C@@H](C)c1c(NC(=O)Nc2cnc(-n3nccn3)c(C(F)(F)F)c2)cnc2sc(C)nc12`, the inhibition was 9.7% (CXCR2 (Homo sapiens, UniProt P25025); ligand displacement, radioligand; 10 µM).
The inhibition of `O=C(CC1CC2CCC1C2)NCCNC(=O)Cn1c(=O)[nH]c(=O)c2ccccc21` (centres unmarked) is reported as 100% (PARP2 (Homo sapiens, UniProt Q9UGN5); enzyme activity, inhibitor; 0.104 µM).
The inhibition of `COc1ccc(S(=O)(=O)N2CCc3ccccc3C2)cc1N1CCN(C(=O)c2ccc(F)cc2C(F)(F)F)CC1` is reported as 16.2% (Htr1d (Rattus norvegicus, UniProt P28565); ligand displacement, radioligand; 1 µM).
`O=C(N1CCCC1)n1ccnn1` gave an inhibition of over 95% (Lypla1; 1 µM).
With `O=C(CN1CCO[C@@H](COc2cccc(Cl)c2)C1)N1CCc2ccccc21` the inhibition was 26.7% (HTR6; radioligand binding; concentration not given, together with: [3H]LSD).
`CN(C)C(=O)n1ccnn1` gave an inhibition of under 50% (Neutral cholesterol ester hydrolase 1; probe labeling, inhibitor, gel-based competitive ABPP; mouse T-cell proteome; 1 µM, 30 min, 37 °C).
For `COc1ccc2c(c1)C(CC(=O)NC(C(=O)NC(CCc1ccccc1)C(=O)NCc1ccc(C)cc1)C(C)O)CC2=O` (centres unmarked), the inhibition was 12% (PLAT; enzyme activity, inhibitor; 100 µM).
With `Cc1c(COc2cc(OCc3cccc(C#N)c3)c(CNC(CO)CO)cc2Cl)cccc1-c1cccc(OCc2ccc(/C=C/C(=O)NO)cc2)c1` the inhibition was 37.4% (HDAC3; enzyme activity, inhibitor; 1 µM).
With `COc1ccc(CN2CC(COc3ccc(C)c(F)c3)CC(F)(F)C2)cc1F` (centres unmarked) the inhibition was 35% (DRD4; ligand displacement, radioligand; 10 µM).
The inhibition of `CCCCCCC#Cc1cncc(-c2nnc(SCc3ccc([N+](=O)[O-])cc3)n2C)c1` is reported as 62% (mraY (Staphylococcus aureus, UniProt Q2FZ93); cell-free assay, inhibitor; 250 µM).
`Cc1c(COc2cc(OCc3cccc(C#N)c3)c(CNC(CO)(CO)CO)cc2Cl)cccc1-c1cccc(OCCCCCCC(=O)NO)c1` gave an inhibition of 95.8% (HDAC3; enzyme activity, inhibitor; 1 µM).
`CC(=O)c1cnc(N)nc1N1CC[C@H]1c1nn2ccc(Cl)c2c(=O)n1-c1ccccc1` has an inhibition of 10% (GALR2 (Homo sapiens, UniProt O43603); ligand displacement, radioligand; 10 µM).
`CCOC(=O)C(Sc1nnc(-c2c[nH]c3ccccc23)n1C)C(=O)OCC` has an inhibition of 41.3% (Breakpoint cluster region protein GAP domain; GAP activity; 10 µM, selectivity counter screen).
For `COc1ccc(CN2CC(COc3cccc(Cl)n3)CC(F)(F)C2)cc1F` (centres unmarked), the inhibition was 33% (DRD4; ligand displacement, radioligand; 10 µM).
With `COc1cc(-n2cc3cc(F)cc(C(N)=O)c3n2)cc(Cl)c1C1CC(O)(CCO)Cc2ccccc21` (centres unmarked) the inhibition was 7.89% (PARP12 (Homo sapiens, UniProt Q9H0J9); enzyme activity, inhibitor; 10 µM).
`N#Cc1c(Nc2ccccc2C(F)(F)F)s[nH]c1=O` has an inhibition of 41% (PARP1; enzyme activity, inhibitor; 10 µM).
The inhibition of `Cc1c(COc2cc(OCc3cccc(C#N)c3)c(CN3CCCC[C@@H]3C(=O)O)cc2Cl)cccc1-c1cccc(OCCCCCCC(=O)NO)c1` is reported as 96.9% (HDAC3; enzyme activity, inhibitor; 1 µM).
The inhibition of `Cn1sc(Nc2c(Cl)ccc3ncccc23)c(C#N)c1=O` is reported as 8% (PARP1; enzyme activity, inhibitor; 10 µM).
For `C=CCN(CC=C)C(=O)n1ccnn1`, the inhibition was under 50% (Neutral cholesterol ester hydrolase 1; probe labeling, inhibitor, gel-based competitive ABPP; mouse T-cell proteome; 1 µM, 30 min, 37 °C).
`Cc1ccc(CNC(=O)[C@H](CCc2ccccc2)NC(=O)[C@H](CC(=O)NCC(C)(C)C)NC(=O)c2ccc(OCc3ccccc3)cc2)cc1` has an inhibition of 13% (PLAT; enzyme activity, inhibitor; 100 µM).
For `CCn1cc(-c2cccc(C(F)(F)F)c2)c2sc(C(=N)NC3CCS(=O)(=O)CC3)cc2c1=O`, the inhibition was -5.41% (TRIM24 (Homo sapiens, UniProt O15164); 1 µM).
With `C=CC(=O)N1Cc2nc(-c3cc(-c4cc(Cl)cnc4Cl)c(F)cc3F)n(-c3ccncn3)c2C1` the inhibition was -12% (Phosphatidylinositol 4,5-bisphosphate 3-kinase catalytic subunit beta isoform, with p85 alpha (PIK3CB, Homo sapiens, UniProt P42338); kinome panel; 1 µM).
With `Cc1c(COc2cc(OCc3cccc(C#N)c3)c(CN3CCCC[C@H]3C(=O)O)cc2Cl)cccc1-c1cccc(OCc2ccc(C(=O)NO)cc2)c1` the inhibition was 44% (HDAC3; enzyme activity, inhibitor; 1 µM).
`COc1cc(OC)c(F)c(/C=C/c2cnc3ccn(S(=O)(=O)c4cn(CCF)cn4)c3n2)c1F` gave an inhibition of 0% (EPHA2 (Homo sapiens, UniProt P29317); 10 nM).
The inhibition of `O=C(n1ccnn1)n1c2ccccc2c2ccccc21` is reported as under 50% (sn-1-specific diacylglycerol lipase ABHD11; serine hydrolase activity, inhibitor, competitive gel-based ABPP; mouse T-cell proteome; 1 µM, 30 min, 37 °C).
The inhibition of `Cc1ccc(CNC(=O)C(CCc2ccccc2)NC(=O)C(NC(=O)c2ccc(OCc3ccc(C(C)(C)C)cc3)cc2)C(C)O)cc1` (centres unmarked) is reported as 12% (PLAT; enzyme activity, inhibitor; 100 µM).

Excerpt of the above:
`C[Si]1(C[C@H](CN)CC(=O)O)CCCC1` has an inhibition of 8% (L-type calcium channel, rat; binding, radioligand binding; 70 µM).
With `Cc1c(COc2cc(OCc3cccc(C#N)c3)c(CN3CCCC[C@H]3C(=O)O)cc2Cl)cccc1-c1cccc(OCc2ccc(C(=O)NO)cc2)c1` the inhibition was 44% (HDAC3; enzyme activity, inhibitor; 1 µM).
Under “log2 fold change”, `Cc1ncsc1-c1ccc(C(C)NC(=O)C2CC(O)CN2C(=O)C(NC(=O)CCCCCCCCCCN2CCCC(Nc3ncc(Cl)c(Nc4ccccc4S(=O)(=O)C(C)C)n3)C2)C(C)(C)C)cc1` (centres unmarked) is recorded as -1.11 (22Rv1; RNA-seq, item: PTCH1 mRNA; concentration not given; baseline: DMSO).
The inhibition of `C=CC(=O)Nc1cccc(-c2cnc3[nH]cc(C(=O)NC(C)(C)C)c3n2)c1` is reported as 4% (PIK3CB (Homo sapiens, UniProt P42338); enzyme activity, inhibitor; 0.1 µM).
The inhibition of `CCOC(=O)C1(C)C(Br)=C(Cl)C(=O)N1c1ccc(Cl)cc1` (centres unmarked) is reported as -13.6% (Breakpoint cluster region protein GAP domain; GAP activity; 10 µM, selectivity counter screen).
